Results of several laboratories.
Parts stem from different laboratories: compare values within a part only. Substitutions count along the parent as printed.

Series 1 — method: RNA Bind-n-Seq; molecule type: RNA; medium: in vitro; tested at: not given; notes: RNA with constant flanks, ends assumed; relative to: input RNA pool; reading: higher = stronger binding
Target: RING finger protein unkempt homolog, zinc fingers 1-6, GST-SBP tag (UNK, Homo sapiens, UniProt Q9C0B0, residues 30-357)
Construct (chain): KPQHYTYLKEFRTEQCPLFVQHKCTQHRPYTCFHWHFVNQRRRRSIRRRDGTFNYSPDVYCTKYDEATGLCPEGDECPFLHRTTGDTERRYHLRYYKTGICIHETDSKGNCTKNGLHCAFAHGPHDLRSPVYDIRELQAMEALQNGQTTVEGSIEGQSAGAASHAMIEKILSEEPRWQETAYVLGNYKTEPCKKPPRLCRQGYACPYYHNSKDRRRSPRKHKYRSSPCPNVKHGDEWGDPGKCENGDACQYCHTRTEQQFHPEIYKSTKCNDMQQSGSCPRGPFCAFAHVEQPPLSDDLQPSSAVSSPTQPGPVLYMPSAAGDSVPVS
| Strand | bound/input enrichment [ratio] |
| --- | --- |
| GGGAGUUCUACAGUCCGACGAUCACACCCCAGUGAGCAGUGAGUGAUUUUCCUUUAGUCACACGGUGGUUUUGCUUUGCCGUCCGCCGGUGAUGGAUAUAUAGGUCUUCAUCCUCCUUUAGGCUGUUUCUCUUCUUGUGUUUGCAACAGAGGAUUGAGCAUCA | 0.334 |
| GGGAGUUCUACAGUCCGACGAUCAAAUGAAGGUACAUAUACAUGAUCUGAGUAACCAUUUCCUCUGUGGCCAAUCUGUAUGCUUUCCGAAGUUUACAAAACUGCUUUGGUUUUUGUCUGUAACCAUCUCUGUCAUCCCAAUAACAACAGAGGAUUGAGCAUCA | 0.362 |
| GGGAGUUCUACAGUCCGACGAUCGUAUCGGGGCGGGGUGUGUGUGUGCAUGGAAGAUGCCUGGGCUGUCUUUGCUAUAUGUAAACCGAGCCAUUGGAUCUUUAUUUUUGAUUAAUUUGUUCUGAUUUUUUGGUUUGUUUUUUACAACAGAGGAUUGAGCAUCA | 0.677 |
| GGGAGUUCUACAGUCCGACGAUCUAGAGAACAAUGACCUCAUUUUAUUUUCUAUGUUAGUUAUUUAUUUCAAAAUUAACAUUUCCGUUGAUUUUUGUCUGAUAAGUCUAUGUUUUGCACUGCUAACUAUGAUGAGGGUUUAAACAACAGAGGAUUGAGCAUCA | 2.23 |
| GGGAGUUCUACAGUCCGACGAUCGCUCCUAUUAAUGAAGUAGCACGAUUUAAUCUGAUGCAGGUAGGCCGCCUUUUGCAGCAGUCCGCAAUGACUGGCUCUGAAGAGGGAGAUCCCCGAACAAAGAGCAGCCUUGGAAAGUUUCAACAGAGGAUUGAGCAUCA | 0.351 |
| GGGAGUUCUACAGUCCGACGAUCGAUUUUUAUUUUAUGUAUAUGAGUACACUGUAGCUGUCUUCAGACACACCAGAAGAGGGCACCGAAUCCCAUUACAGAUUAUUGAGAGCCACCAUGUGAUUACUGGGGAUUGAACUCAUGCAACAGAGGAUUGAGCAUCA | 0.249 |
| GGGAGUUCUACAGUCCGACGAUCUAUAUAUAUAUAUAUCAAAAAGCCAAAAUCUUUAUUUUUAUGCACCUAGAAUAUUUUAAACCGUUCUCAAUAUUAAAAAGUAUGAGUUGUAAGUAAUCUUGCCAAAAGUGAGCGGGUUAGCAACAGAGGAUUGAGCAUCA | 12.6 |
| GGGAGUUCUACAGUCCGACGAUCCUUCAGCUGGUGCUUGUCUGGCUGGGUGAAGUGCUAGGUGUCAUUGGGGACUGUCCAGAGCCCGUUCAGCGCUCCUUCCUGGUGGCUAGUGUUCUGCCUGGCCCCGAUGGCAACAUUAACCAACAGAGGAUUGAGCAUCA | 0.0896 |

Series 2 — target: UBE2A UBC core domain (UniProt P49459); method: yeast two-hybrid; medium: yeast; notes: mostly zero background; relative to: not given; reading: higher = stronger interaction
Chain of UniProt P49459 (whole entry, looked up): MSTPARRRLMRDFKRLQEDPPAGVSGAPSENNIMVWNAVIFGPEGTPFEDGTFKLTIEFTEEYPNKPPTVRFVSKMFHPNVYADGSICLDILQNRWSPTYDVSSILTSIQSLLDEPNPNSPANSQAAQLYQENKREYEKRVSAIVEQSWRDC
B1: NSMCE1 RING domain (UniProt Q8WV22); chain RETYPDAVKICNICHSLLIQGQSCETCGIRMHLPCVAKYFQSNAEPRCPHCNDYWPHEIPKV
B2: TRIM38 RING domain (UniProt O00635); chain STKKMMEEATCSICLSLMTNPVSINCGHSYCHLCITDFFKNPSQKQLRQETFCCPQCRAPFHMDSLRP
B3: PHF7 RING domain (UniProt Q9BWX1); chain IQHGHVGEESCILCCEDLSQQSVENIQSPCCSQAIYHRKCIQKYAHTSAKHFFKCPQCNNRKEFPQEML
B4: TRIM55 RING domain (UniProt Q9BYV6); chain TMDNLEKQLICPICLEMFTKPVVILPCQHNLCRKCASDIFQASNPYLPTRGGTTMASGGRFRCPSCRHEVVLDRHG
B5: RNF5 RING domain (UniProt Q99942); chain ERGGAGATFECNICLETAREAVVSVCGHLYCWPCLHQWLETRPERQECPVCKAGISREKVVP
B6: RNF43 RING domain (UniProt Q68DV7); chain SGSSCSSAPVCAICLEEFSEGQELRVISCLHEFHRNCVDPWLHQHRTCPLCMFNITEGDSFS
B7: RNF14 RING domain (UniProt Q9UBS8); chain IKCFNSKLFLCSICFCEKLGSECMYFLECRHVYCKACLKDYFEIQIRDGQVQCLNCPEPKCPSVATPGQVK
B8: TRIM52 RING domain (UniProt Q96A61); chain PMQTLQEEAVCAICLDYFKDPVSISCGHNFCRGCVTQLWSKEDEEDQNEEEDEWEEEEDEEAV
B9: TRIM10 RING domain (UniProt Q9UDY6); chain SVTSLADEVNCPICQGTLREPVTIDCGHNFCRACLTRYCEIPGPDLEESPTCPLCKEPFRPGSFRP
B10: RFPL2 RING domain (UniProt O75678); chain MAALFQEASSCPVCSDYLEKPMSLECGCAVCLKCINSLQKEPHGEDLLCCCSSMVSRKNKIRR
B11: MSL2 RING domain (UniProt Q9HCI7); chain LLPYFRQSLSCCVCGHLLQDPIAPTNSTCQHYVCKTCKGKKMMMKPSCSWCKDYEQFEENKQ
| Molecule | lacZ reporter activity |
| --- | --- |
| B1 (NSMCE1 RING domain) | 0 |
| B2 (TRIM38 RING domain) | 0 |
| B3 (PHF7 RING domain) | 0 |
| B4 (TRIM55 RING domain) | 0 |
| B5 (RNF5 RING domain) | 0 |
| B6 (RNF43 RING domain) | 0 |
| B7 (RNF14 RING domain) | 0 |
| B8 (TRIM52 RING domain) | 0 |
| B9 (TRIM10 RING domain) | 0 |
| B10 (RFPL2 RING domain) | 0 |
| KRQCSDVDDICSICQAEFQKPILLICQHIFCEECMTLWFNREKTCPLCRTVISDHINKW (RNFT1 RING domain (UniProt Q5M7Z0)) | 0 |
| B11 (MSL2 RING domain) | 0 |

Series 3 — target: CCNE1, cyclin fold, Cln2 fusion (human); method: yeast growth competition, sequencing; medium: yeast; notes: strong parent motif; relative to: not given; reading: higher = stronger binding
Starting sequence: viral docking peptide; KGVKRKLFAEDSS; partner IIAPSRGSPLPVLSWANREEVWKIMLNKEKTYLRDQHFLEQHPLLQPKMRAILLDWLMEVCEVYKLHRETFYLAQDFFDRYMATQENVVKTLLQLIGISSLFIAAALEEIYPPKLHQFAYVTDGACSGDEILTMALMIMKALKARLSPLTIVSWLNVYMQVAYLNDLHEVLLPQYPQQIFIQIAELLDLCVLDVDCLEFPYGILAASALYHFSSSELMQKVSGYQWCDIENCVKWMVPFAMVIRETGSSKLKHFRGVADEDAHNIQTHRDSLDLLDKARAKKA
| Substitution | normalised enrichment score |
| --- | --- |
| KGVKHKLFAEDSS [R5H] | 0.728 |
| KGVKRKLFIEDSS [A9I] | 7.66 |
| KGVKRKNFAEDSS [L7N] | 0.498 |

Series 4 — method: RNA Bind-n-Seq; molecule type: RNA; medium: in vitro; tested at: 200 nM; notes: whole 134-nt RNA, ends assumed; together with: 150 mM LiCl; relative to: input library; reading: higher = stronger binding; each molecule: 7-deaza-guanosine replaces G
Target: Fragile X messenger ribonucleoprotein 1, C-terminal low-complexity region (Fmr1, Mus musculus, UniProt P35922)
| Strand | log2 enrichment |
| --- | --- |
| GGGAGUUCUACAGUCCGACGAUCACCAUGCAGGUGGGCAUCUUUGGGAAGUGGGGCAAGGGGGGGAUAGGGAGGGGGGUAACACUUUGGGAACAGGUGGUCCCAGUUCGUUUCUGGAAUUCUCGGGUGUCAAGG | 1.27 |
| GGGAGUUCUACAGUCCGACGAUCUGGCCCUGGUGGCAUGCGGGGAGGAAGAGGUGGCCUCAUGGAUCGUGGUGGUCCCGGUGGAAUGUUCAGAGGUUGCCGUGGUGGAGACAGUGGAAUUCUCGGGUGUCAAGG | -0.428 |
| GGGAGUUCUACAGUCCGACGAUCAGUCCUGUGCUACACAUCGUAUGUACCGAAUCGGGGCCCCCGGCCCCCGGCCCCCGGAAAGUAUUAUGUUACGCCGUUCGGAUCUGCACUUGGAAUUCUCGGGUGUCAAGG | -2.47 |
| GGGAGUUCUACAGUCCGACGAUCUUGUGGCUGAGAGACAGUUUGCAAAGGAACAACAUACAGAUGGGACACUAAAGGAAGUUGGAGAAGAUUAUCAAAUCGCAAUCCCAGAUUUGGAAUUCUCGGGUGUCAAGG | 1.01 |
| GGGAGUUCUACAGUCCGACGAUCUGGGAGGUGGAUUUUGUUUAUUUUUUUAGCUCAUUUCUAGGGGUGGGAAUUUUUUUUUAAUAUGUGUCAUGAAUAAAGUUGUUUUUGAAAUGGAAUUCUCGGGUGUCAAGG | 0.883 |
| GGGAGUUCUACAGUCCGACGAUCCUUUGGUUGACAGGAAGUUCCUUUUCCAGGCAGGUCCCGUUGCCACCUCCUGCUCACUCAGUCCCGGGCUCUGCCGAGUGGUCCUGGGAAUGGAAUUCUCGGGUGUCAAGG | 1.68 |
| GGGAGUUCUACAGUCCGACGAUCUAACUUUAGAGGAGGAUCUGAUGGAUAUGGCAGUGGACGUGGAUUUGGGGAUGGCUAUUAUGGGUAUGGAGGAGGACCUGGAGGUGGCAAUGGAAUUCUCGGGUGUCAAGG | 0.358 |
| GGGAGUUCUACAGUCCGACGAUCCACAGACAACACGCACCCACACAGAUACAGAGGGAAGGGGUUGGGAUGGGGACAGGGUGCACAGCAGGGCGGGGUAGGACCCCAGCCCCUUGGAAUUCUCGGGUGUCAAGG | 0.633 |

For quick reference, copied from above (series 2):
| Molecule | lacZ reporter activity |
| --- | --- |
| B6 (RNF43 RING domain) | 0 |
| B11 (MSL2 RING domain) | 0 |
| B5 (RNF5 RING domain) | 0 |
| B10 (RFPL2 RING domain) | 0 |
